Measured values from different studies.
Lines come from different studies, so protocols differ. ± gives the spread as reported.

COc1ccc2c(c1)c(CC(=O)OCC(=O)c1ccccc1)c(C)n2C(=O)c1ccc(Cl)cc1 — latency of nociceptive response (hot plate test; BALB/c mice; 75 mg/kg, 90 min): 16.6 ± 1.44 s
CCCc1nc2cc(C(=O)N3CCC4(CC3)CC(=O)c3cc5c(cc3O4)OC(C)(C)CC5)cc(C)c2[nH]1 — α-SMA level (item: α-SMA mRNA and protein; C57BL/6J male mouse, HFD-induced NASH, liver; intragastric, dose not given, daily; relative to: vehicle): decreased
C[C@@H](O)[C@@H]1NC(=O)[C@H](CCCCN)NC(=O)[C@@H](Cc2ccc(NC(N)=O)cc2)NC(=O)[C@H](Cc2ccc(NC(=O)[C@@H]3CC(=O)NC(=O)N3)cc2)NC(=O)[C@H](NC(=O)[C@H](Cc2ccc(Cl)cc2)NC(=O)CN2CCN(CC(=O)O)CCN(CC(=O)O)CCN(CC(=O)O)CC2)CSSC[C@@H](C(=O)N[C@H](Cc2ccc(O)cc2)C(N)=O)NC1=O [gallium-68 labelled] — SUVpeak (PET/CT; human neuroendocrine tumour patients, all lesions; 60 min): 18 ± 19
O=C1/C(=C/c2ccc(O)cc2)Oc2c1c(O)cc1oc3cc(O)c(O)cc3c21 — EC50 (DPPH scavenging, absorbance): 320 µM
COc1c2c(cc3oc(COC4OC(CO)C(O)C(O)C4O)cc(=O)c13)OC(C(C)(C)O)C2 (centres unmarked) — hot plate latency (analgesia; mouse; oral, 4 mg/kg, 0.5 h): 11.7 ± 1.31 s
CCc1nc(-c2ccc(-c3ccc(CCC(N)(CO)CO)cc3)cc2)co1 — CD3 protein level (western blot; BALB/c mouse, imiquimod psoriasis model, skin lesion; dose not given): decreased
C[C@H](NC(=O)COC(=O)[C@H](C)NC(=O)CO)C(=O)O — depolymerization rate constant (water; pH 7, 37 °C): 5.86 h⁻¹
COc1cc(Cn2ccc3cc(C(=O)NCC45CC6CC(CC(C6)C4)C5)ccc32)ccc1C(=O)NO — amyloid plaque number (immunohistochemistry, item: amyloid-beta (3D6); 5xFAD mouse, brain; intraperitoneal, 10 mg/kg once daily, 2 months; relative to: vehicle): decreased
Nc1nc2cc(CC[C@H]3C[C@@H](n4ccc5c(N)ncnc54)[C@H](O)[C@@H]3O)ccc2cc1Br — reduction (inhibitor, item: SmD1/3 dimethylarginine; mice, NCI-H1048 xenograft, tumour; 10 mg/kg, 144 h, after 6 days treatment): > 95%
CSCC[C@@H]1NC(=O)[C@H](CCCCN)NC(=O)[C@H]([C@@H](C)O)NC(=O)[C@H](CCCCN)NC(=O)[C@H](CC(C)C)NC(=O)[C@H](CCCCN)NC(=O)[C@H](CCCNC(=N)N)NC(=O)[C@@H]2CSSC[C@@H]3NC(=O)[C@@H]4CCCN4C(=O)[C@H](C(C)C)NC(=O)[C@H](CCC(N)=O)NC(=O)[C@H](CCC(N)=O)NC(=O)CNC(=O)[C@H](CC(C)C)NC(=O)[C@@H]4CSSC[C@H](NC(=O)[C@H]([C@@H](C)O)NC(=O)[C@H](C)NC(=O)[C@H](CSSC[C@@H](C(=O)N[C@@H](CO)C(=O)N[C@@H](CCCNC(=N)N)C(=O)N[C@H](C(N)=O)[C@@H](C)O)NC(=O)[C@@H]5CCCN5C(=O)[C@H](CC(N)=O)NC1=O)NC(=O)[C@@H]1CCCN1C(=O)[C@H](CC(=O)O)NC(=O)[C@H](CSSC[C@H](NC(=O)[C@H](CCCNC(=N)N)NC(=O)[C@H](CCCNC(=N)N)NC(=O)[C@H](CCCCN)NC(=O)[C@@H](N)CCCCN)C(=O)N[C@@H](C(C)C)C(=O)N[C@@H](CCCNC(=N)N)C(=O)N[C@@H](CC(C)C)C(=O)N[C@@H](Cc1c[nH]cn1)C(=O)N[C@@H](CCC(=O)O)C(=O)N[C@@H](CO)C(=O)N4)NC3=O)C(=O)N[C@@H](Cc1ccc(O)cc1)C(=O)N[C@H]1CSSC[C@H](NC(=O)[C@H](Cc3ccccc3)NC(=O)[C@H](C)NC(=O)[C@H](CC(N)=O)NC(=O)[C@H](Cc3ccccc3)NC(=O)[C@H](Cc3ccccc3)NC(=O)[C@H](CCCNC(=N)N)NC1=O)C(=O)N[C@@H](Cc1ccc(O)cc1)C(=O)N2 — food intake (male Long-Evans rats; intracerebroventricular, 1.0 nmol, day 5; relative to: saline): 70.8 ± 7.6 % above saline
COCCOCCOCCOCCOCCOCCOCCOCCOCCOCCOCCOCCOCCOCCOCCOCCOCCOCCOCCOCCOCCOCCNC(=O)CCC1(Cc2ccccc2)c2ccccc2-c2ccc(-c3sc(-c4c5c(c(-c6sc(-c7ccc8c(c7)C(CCC(=O)NCCOCCOCCOCCOCCOCCOCCOCCOCCOCCOCCOCCOCCOCCOCCOCCOCCOCCOCCOCCOCCOCCOC)(Cc7ccccc7)c7ccccc7-8)c7c6OCCO7)c6nsnc46)N=S=N5)c4c3OCCO4)cc21 (centres unmarked) — intestine to liver ratio (ex vivo NIR-II imaging; mouse, bile duct ligation; iv, 15 mg/kg, 6 h, day 1): ~0.5
CC[C@H](C)[C@@H]1NC(=O)[C@H](Cc2ccccc2)NC(=O)[C@H](CCC(=O)O)NC(=O)[C@H](CCCNC(=N)N)NC(=O)CNC(=O)[C@@H](NC(=O)[C@H](CC(C)C)NC(=O)[C@H](CCCNC(=N)N)NC(=O)[C@@H](NC(=O)CNC(=O)[C@H](Cc2ccc(O)cc2)NC(=O)[C@@H]2CCCN2C(=O)[C@H](C)NC(=O)[C@H](C)NC(=O)[C@@H](N)CCCNC(=N)N)C(C)C)CSSC[C@@H]2NC(=O)[C@@H](NC(=O)[C@H](CO)NC(=O)[C@H](CO)NC(=O)[C@H](CO)NC(=O)[C@H](CC(C)C)NC(=O)CNC(=O)[C@H](C)NC(=O)[C@H](CC(C)C)NC(=O)[C@@H](NC(=O)[C@@H](N)CC(=O)O)C(C)C)CSSC[C@H](NC(=O)CNC(=O)[C@H](Cc3c[nH]c4ccccc34)NC(=O)[C@H](CCCCN)NC2=O)C(=O)N[C@@H](CO)C(=O)N[C@@H](CCCCN)C(=O)N[C@@H](CO)C(=O)N[C@@H](CCC(=O)O)C(=O)N[C@@H]([C@@H](C)CC)C(=O)N[C@@H](CO)C(=O)N[C@@H](CO)C(=O)N[C@@H](CC(C)C)C(=O)N[C@H](C(=O)O)CSSC[C@@H](C(=O)NCC(=O)NCC(=O)N[C@@H](CO)C(=O)N[C@@H](CCCNC(=N)N)C(=O)N[C@@H](Cc2c[nH]c3ccccc23)C(=O)O)NC(=O)[C@H]([C@@H](C)O)NC(=O)[C@H](Cc2ccccc2)NC(=O)[C@H]([C@@H](C)CC)NC(=O)[C@H](C(C)C)NC(=O)[C@H](C)NC(=O)[C@H](CCCNC(=N)N)NC1=O — food intake (satiated male Sprague-Dawley rats; intracerebroventricular, 0.1 nmol, 0 to 1 h, early light phase): 3.74 ± 0.1 g
O=C1c2c(cc(O)c3c2oc2cc(O)c(O)cc23)OC1Cc1ccc(O)c(O)c1 (centres unmarked) — EC50 (DPPH scavenging, absorbance): 670 µM
CC[C@H]1[C@@H](O)[C@@H]2[C@H](CC[C@]3(C)[C@@H]([C@H](C)CCOS(=O)(=O)[O-])CC[C@@H]23)[C@@]2(C)CC[C@@H](O)C[C@@H]12.[Na+] — steatosis area (digital image analysis; ob/ob NASH mouse model, liver; oral, 10 mg/kg once daily, 8 weeks; relative to: area): 24.8 ± 2.3%
CC(=O)N[C@@H](CC(N)=O)C(=O)NCC(=O)N[C@@H](C)C(=O)N[C@@H](C)C(N)=O — rate constant succinimide to β-Asp (1H NMR; sodium phosphate buffer 50 mM; pH 7.4, 46 °C): 1.08 h⁻¹
COc1cc(CN2CCN(c3ccc(C(F)(F)F)cc3)CC2)c2cc3[n+](cc2c1O)CCc1cc2c(cc1-3)OCO2 — IC50 (ABTS scavenging, absorbance; 10 min): 8.07 µg/mL
COc1ccc2c(c1OC)C(C(Cl)(Cl)Cl)N1CCc3cc4c(cc3C1=C2)OCO4 (centres unmarked) — triglycerides (rat, STZ-induced diabetic, serum; oral, 12 mg/kg, day 28): 105 ± 4.01 mg/dL
COc1ccc(-c2oc3ccccc3c(=O)c2OCc2ccccc2)cc1 — blood glucose (diabetic rat; 7.5 mg/kg, day 21, p-nitrophenyl β-glucoside induced): 159 ± 4.14 mg/dL
CCN1CCN(Cn2nc(C34CC5CC(CC(C5)C3)C4)n(-c3ccccc3)c2=S)CC1 — inhibition in vivo (paw oedema; rat; intraperitoneal, 40 mg/kg): 14.1%
CN(C)c1ccc(-c2oc3ccccc3c(=O)c2OCc2ccccc2)cc1 — blood glucose (diabetic rat; 5 mg/kg, day 28, p-nitrophenyl β-glucoside induced): 138 ± 4.89 mg/dL
CCc1nnc(NS(=O)(=O)c2ccc(NC(=S)NC(=O)/C=C/c3ccc(F)cc3)cc2)s1 — reduction of CD31-positive vascular area (athymic nude mice, SK-N-AS xenograft, tumour; i.p., 20 mg/kg daily, 18 days): 87%
COC(=O)[C@H](CSSC(C)(C)[C@H](NC(=O)[C@H](CCC(=O)NC[C@H](O)[C@@H](O)[C@H](O)[C@H](O)CO)NC(=O)[C@H](CCC(=O)O)NC(=O)[C@H](CCC(=O)NC[C@H](O)[C@@H](O)[C@H](O)[C@H](O)CO)NC(=O)[C@H](CCC(=O)O)NC(=O)[C@H](CCC(=O)NC[C@H](O)[C@@H](O)[C@H](O)[C@H](O)CO)NC(=O)CC[C@H](NC(=O)c1ccc(NCc2cnc3nc(N)[nH]c(=O)c3n2)cc1)C(=O)O)C(=O)O)NC(=O)CC[C@H](NC(=O)c1ccc(NCc2cnc3nc(N)nc(N)c3n2)cc1)C(=O)O — CD172+ CD43− monocyte effect (flow cytometry; Lewis rat, adjuvant-induced arthritis, blood; 500 nmol/kg twice weekly × 1.5, added: folic acid, 500-fold molar excess): inhibited
O=c1c(OCc2ccccc2)c(-c2ccc(Cl)cc2)oc2ccccc12 — blood glucose (diabetic rat; 5 mg/kg, day 21, p-nitrophenyl β-glucoside induced): 176 ± 4.79 mg/dL
Cc1cc(Nc2cc3ncccc3c(N[C@@H]3C[C@H]4CC[C@@H](C3)N4CCC#N)n2)n[nH]1 — clinical response (moderate-severe ulcerative colitis patients; 80 mg, day 28; relative to: patients): 20%
Cc1ccc(-c2nc3ccccc3[nH]2)o1 — IC50 (ABTS scavenging, absorbance): 1.42 µM
O=c1c(OCc2ccccc2)c(-c2ccc([N+](=O)[O-])cc2)oc2ccccc12 — blood glucose (diabetic rat; 7.5 mg/kg, day 1, p-nitrophenyl β-glucoside induced): 407 ± 4.99 mg/dL
CSCC[C@H](NC(=O)[C@H](CO)NC(=O)[C@@H](N)CO)C(=O)N[C@@H](CCCCN)C(=O)N[C@@H](CC(C)C)C(=O)N[C@@H](CO)C(=O)N[C@@H](Cc1ccccc1)C(=O)N[C@@H](CCCNC(=N)N)C(=O)N[C@@H](C)C(=O)N[C@@H](CCCNC(=N)N)C(=O)N[C@@H](C)C(=O)N[C@@H](Cc1ccc(O)cc1)C(=O)NCC(=O)N[C@@H](Cc1ccccc1)C(=O)N[C@@H](CCCNC(=N)N)C(=O)NCC(=O)N1CCC[C@H]1C(=O)NCC(=O)N1CCC[C@H]1C(=O)N[C@@H](CCC(N)=O)C(=O)N[C@@H](CC(C)C)C(=O)O — plasma glucagon level (fed NCD wild-type mouse, plasma; dose not given, chronic treatment): no effect
O=C1c2c(O)cc3oc4cc(O)c(O)cc4c3c2OC1Cc1ccc(O)cc1 (centres unmarked) — EC50 (DPPH scavenging, absorbance): 100 µM
COc1ccc(C2CC(c3ccc(C)cc3)=Nc3ccccc3S2)cc1OC (centres unmarked) — alkaline phosphatase (Wistar rat, STZ-induced diabetes, serum; 20 mg/kg, 28 days): 198 IU/L
S=c1n(CN2CCN(c3ccccc3)CC2)nc(C23CC4CC(CC(C4)C2)C3)n1-c1ccccc1 — inhibition in vivo (paw oedema; rat; intraperitoneal, 20 mg/kg): 22.5%
O=C(NCc1cc(F)cc(F)c1)[C@@]1(O)CCN(c2ccc3[nH]ccc3c2)C1=O — T/C (CAKI-1 xenograft, mouse; oral, 10 mg/kg twice daily): 71%
Cc1ccc(-c2oc3ccccc3c(=O)c2OCc2ccccc2)cc1 — blood glucose (diabetic rat; 5 mg/kg, day 14, p-nitrophenyl β-glucoside induced): 219 ± 4.9 mg/dL
Cn1c(=O)n(Cc2ccc(C(=O)O)cc2)c(=O)c2cc(C#CCc3ccccc3)ccc21 — arthritic score (female B10.RIII mice, antibody-induced arthritis; oral, 100 mg/kg twice daily, day 14, dosing from day 4; relative to: vehicle): decreased
O=c1c(OCc2ccccc2)c(-c2cccc([N+](=O)[O-])c2)oc2ccccc12 — blood glucose (diabetic rat; 5 mg/kg, day 1, p-nitrophenyl β-glucoside induced): 393 ± 4.71 mg/dL
C=C(c1ccc(C(=O)O)c(F)c1)c1cc2c(cc1C)C(C)(C)C=CC2(C)C — log2 fold change (RNA sequencing, item: Cav1 mRNA; rat, brain; dose not given, 24 h, single dose; relative to: vehicle): 0.63

Some of these lines once more:
CCc1nnc(NS(=O)(=O)c2ccc(NC(=S)NC(=O)/C=C/c3ccc(F)cc3)cc2)s1 — reduction of CD31-positive vascular area (athymic nude mice, SK-N-AS xenograft, tumour; i.p., 20 mg/kg daily, 18 days): 87%
CCN1CCN(Cn2nc(C34CC5CC(CC(C5)C3)C4)n(-c3ccccc3)c2=S)CC1 — inhibition in vivo (paw oedema; rat; intraperitoneal, 40 mg/kg): 14.1%
